Measured values pooled from the literature.
Parts stem from different laboratories: compare values within a part only. Positions count from the first letter of the parent shown.

Study 1
Target: CCNB1, cyclin fold, Cln2 fusion (human)
Technique: yeast growth competition, sequencing
Sample: yeast
Setting: weak parent motif
Reference: not given
Direction: higher = stronger binding
Parent: WEE1 docking peptide (human); HKTFRKLRLFDTP
Substitution	normalised enrichment score
HKTNRKLRLFDTP [F4N]	0.797
HKTFRKLTLFDTP [R8T]	0.707
HITFRKLRLFDTP [K2I]	-0.124
HKTFSKLRLFDTP [R5S]	0.548
HKTFRKLRLFQTP [D11Q]	2.59
HKTFRKYRLFDTP [L7Y]	1.16
HKTFRKLRLFDTI [P13I]	0.125
HKTFRKLRLFDCP [T12C]	-0.156
HKVFRKLRLFDTP [T3V]	1.81
HKTFRKQRLFDTP [L7Q]	1.38
HKTFRKLRLFDLP [T12L]	-0.0244
HKTFRKLRYFDTP [L9Y]	1.27
HKTFRKLRLFDTC [P13C]	0.8
HKTFRKLRAFDTP [L9A]	1.18
HKTFRKLCLFDTP [R8C]	0.495
HTTFRKLRLFDTP [K2T]	1.42
HKTFRKLRLFGTP [D11G]	-0.737
HKTFRKLRLSDTP [F10S]	-0.0637
HKTFRKLRLFDTF [P13F]	0.357
HKTFRKLRLRDTP [F10R]	1.15

Study 2
Target: Histone acetyltransferase KAT6A, winged helix 1, GST fusion (KAT6A, Homo sapiens, UniProt Q92794, residues 1-85)
Technique: protein binding microarray
Molecule type: double-stranded DNA, one strand shown
Sample: in vitro
Concentration: not given
Setting: 8-mer, flanks averaged, mean of 2 arrays, mostly near background
Reference: not given
Direction: higher = stronger binding
Target sequence (chain): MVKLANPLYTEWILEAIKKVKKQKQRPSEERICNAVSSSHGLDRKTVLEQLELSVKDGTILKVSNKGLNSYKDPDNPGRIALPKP
Oligonucleotide	E-score
CGACTGAA	0.0818
AGAATGAT	-0.176
GAGAGTCC	0.00903
GTCAAGCA	-0.0902
CGCCCTGA	0.115
CGTCAGTC	0.0759
TCAAATCA	-0.288
AGACTGAT	-0.129
ATGAACCA	-0.237
ATACGCTC	0.08
CAAATATA	-0.245
AGGACCGA	0.0854
CCTTCATA	-0.0232
AATAGCTC	-0.1
TAGATACA	-0.228
TTAAATAA	-0.0378
AAATGTCT	-0.0914
AGAACCTA	-0.0862
ATTGCTGC	-0.00132
GGCAGGCA	-0.154
GGAAGGCC	0.00248
ACCACCCT	-0.217
AGTTGAGC	-0.123
CGCGACTA	0.299
CTTACGGA	0.0318

Study 3
Substance: PhoQ, residues 284 288 289 292 302 303 AANNSF
Technique: Sort-seq
Refers to: YFP reporter
Sample: E. coli
Setting: PhoQ-PhoP variant library
With: 10 µM Mg2+
Reference: high Mg2+ state
Direction: higher = stronger signaling
target	fold induction
PhoP, residues 12 14 15 18 19 SFCSL (Escherichia coli, UniProt P23836)	17.7
PhoP, residues 12 14 15 18 19 AYFRS (Escherichia coli, UniProt P23836)	19.5
PhoP, residues 12 14 15 18 19 HHYTI (Escherichia coli, UniProt P23836)	2.37

Study 4
Target: ABI1, truncated, D143A, DHFR fusion (Arabidopsis thaliana)
Technique: DHFR PCA, deep sequencing
Sample: yeast
Setting: methotrexate growth selection, single substitutions
With: (+)-ABA 0.0091 µM
Reference: wild-type fitted maximum
Direction: higher = stronger binding
Parent: PYL1, truncated, DHFR fusion (Arabidopsis thaliana); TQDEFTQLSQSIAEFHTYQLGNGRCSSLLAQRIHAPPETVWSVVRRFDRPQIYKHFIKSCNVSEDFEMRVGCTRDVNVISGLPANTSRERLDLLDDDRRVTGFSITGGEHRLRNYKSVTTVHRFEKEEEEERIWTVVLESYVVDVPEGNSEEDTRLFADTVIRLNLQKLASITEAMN; partner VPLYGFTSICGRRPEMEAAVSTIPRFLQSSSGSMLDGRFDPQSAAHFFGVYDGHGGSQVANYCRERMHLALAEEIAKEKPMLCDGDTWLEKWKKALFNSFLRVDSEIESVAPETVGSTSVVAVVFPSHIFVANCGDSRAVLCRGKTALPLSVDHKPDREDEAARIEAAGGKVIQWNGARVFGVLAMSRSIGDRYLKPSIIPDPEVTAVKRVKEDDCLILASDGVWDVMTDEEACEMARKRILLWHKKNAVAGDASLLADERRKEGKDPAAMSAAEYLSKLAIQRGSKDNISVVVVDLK
Substitution	relative binding score
D97S	21.1%
V121C	4.09%
V62S	10%
E14K	12%
Q19H	19.9%
L138G	3.34%
L138E	3.18%
I79D	3.3%
S9I	24.4%
I133W	7.87%
V137H	-9.57%
L93R	4.02%

A few entries again (study 4):
Substitution	relative binding score
D97S	21.1%
V121C	4.09%
V62S	10%
E14K	12%
Q19H	19.9%
L138G	3.34%
L138E	3.18%
I79D	3.3%
S9I	24.4%
I133W	7.87%
